Measurements of several laboratories.
Every numbered part comes from another study and shows a few of its results, in no order. Several values in a cell are separate wells, animals, samples, runs or records.
Chain of UniProt O75116 (whole entry, looked up): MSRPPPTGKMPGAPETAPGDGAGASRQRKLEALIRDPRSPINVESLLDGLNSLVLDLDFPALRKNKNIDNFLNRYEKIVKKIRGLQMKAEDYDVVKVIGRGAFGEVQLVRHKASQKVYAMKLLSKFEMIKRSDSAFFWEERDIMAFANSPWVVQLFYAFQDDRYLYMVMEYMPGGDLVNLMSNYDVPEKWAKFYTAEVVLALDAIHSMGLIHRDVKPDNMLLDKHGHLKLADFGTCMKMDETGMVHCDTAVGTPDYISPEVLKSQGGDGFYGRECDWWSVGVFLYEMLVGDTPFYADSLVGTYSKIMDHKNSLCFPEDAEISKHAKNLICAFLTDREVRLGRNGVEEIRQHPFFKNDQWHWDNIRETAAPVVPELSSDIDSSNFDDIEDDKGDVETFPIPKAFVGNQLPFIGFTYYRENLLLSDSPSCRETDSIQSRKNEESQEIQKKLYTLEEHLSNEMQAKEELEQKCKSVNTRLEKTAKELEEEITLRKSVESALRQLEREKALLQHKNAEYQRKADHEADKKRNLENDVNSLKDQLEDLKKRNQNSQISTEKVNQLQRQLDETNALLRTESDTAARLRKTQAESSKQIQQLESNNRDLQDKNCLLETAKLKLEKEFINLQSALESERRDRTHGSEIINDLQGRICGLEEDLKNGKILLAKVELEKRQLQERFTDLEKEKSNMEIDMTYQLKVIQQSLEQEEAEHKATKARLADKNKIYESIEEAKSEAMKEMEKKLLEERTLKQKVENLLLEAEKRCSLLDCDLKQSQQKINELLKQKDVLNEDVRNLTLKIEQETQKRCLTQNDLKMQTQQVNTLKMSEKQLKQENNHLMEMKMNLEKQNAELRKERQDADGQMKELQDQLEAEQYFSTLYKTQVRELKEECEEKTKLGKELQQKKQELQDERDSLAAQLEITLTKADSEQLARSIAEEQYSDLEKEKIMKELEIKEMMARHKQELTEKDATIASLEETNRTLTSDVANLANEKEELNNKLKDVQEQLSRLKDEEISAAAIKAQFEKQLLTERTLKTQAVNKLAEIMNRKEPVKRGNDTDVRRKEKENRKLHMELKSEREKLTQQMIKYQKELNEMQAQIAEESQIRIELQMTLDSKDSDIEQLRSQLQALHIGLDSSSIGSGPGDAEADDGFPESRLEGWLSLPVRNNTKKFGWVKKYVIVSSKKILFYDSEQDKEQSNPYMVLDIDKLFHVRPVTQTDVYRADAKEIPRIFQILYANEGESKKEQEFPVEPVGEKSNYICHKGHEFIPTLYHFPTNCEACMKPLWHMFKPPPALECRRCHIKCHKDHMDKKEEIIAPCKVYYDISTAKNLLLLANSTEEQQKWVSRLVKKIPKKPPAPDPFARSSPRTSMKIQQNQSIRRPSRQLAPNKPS
Chain of UniProt P50613 (whole entry, looked up): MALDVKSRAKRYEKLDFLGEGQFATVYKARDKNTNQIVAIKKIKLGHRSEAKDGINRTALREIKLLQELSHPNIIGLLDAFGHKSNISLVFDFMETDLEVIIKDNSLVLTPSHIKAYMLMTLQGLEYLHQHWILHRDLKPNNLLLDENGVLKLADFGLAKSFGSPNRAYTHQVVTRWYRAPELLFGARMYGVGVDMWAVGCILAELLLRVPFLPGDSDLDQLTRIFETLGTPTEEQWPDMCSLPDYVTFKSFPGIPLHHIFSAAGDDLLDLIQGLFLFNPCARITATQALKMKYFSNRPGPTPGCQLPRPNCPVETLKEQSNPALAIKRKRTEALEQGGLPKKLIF
Chain of UniProt P19784 (whole entry, looked up): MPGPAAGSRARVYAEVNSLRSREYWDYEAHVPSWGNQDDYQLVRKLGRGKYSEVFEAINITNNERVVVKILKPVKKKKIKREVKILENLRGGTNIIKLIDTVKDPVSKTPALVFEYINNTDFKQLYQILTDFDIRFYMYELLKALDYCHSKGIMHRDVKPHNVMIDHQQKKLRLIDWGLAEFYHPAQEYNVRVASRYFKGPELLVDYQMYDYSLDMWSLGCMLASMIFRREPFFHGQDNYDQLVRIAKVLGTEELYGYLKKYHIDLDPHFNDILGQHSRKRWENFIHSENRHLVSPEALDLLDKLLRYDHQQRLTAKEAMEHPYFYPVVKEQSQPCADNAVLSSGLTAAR

Block 1
Structure (SMILES): COc1ccc(Cl)cc1NC(=O)Nc1cc(C)nc2ccccc12
Observed: enzyme activity
Mode: inhibitor
Tested at: 0.5 µM
Relative to: control
target | remaining activity
Proto-oncogene tyrosine-protein kinase receptor Ret (RET, Homo sapiens, UniProt P07949) | 102%
Cyclin-dependent kinase 7 (CDK7, Homo sapiens, UniProt P50613) | 101%
Serine/threonine-protein kinase D1 (PRKD1, Homo sapiens, UniProt Q15139) | 96.6%
Proto-oncogene tyrosine-protein kinase ROS (ROS1, Homo sapiens, UniProt P08922) | 92.5%
STE20-like serine/threonine-protein kinase (SLK, Homo sapiens, UniProt Q9H2G2) | 98.8%
Myotonin-protein kinase (DMPK, Homo sapiens, UniProt Q09013) | 103%
Aurora kinase A (AURKA, Homo sapiens, UniProt O14965) | 93.4%
NT-3 growth factor receptor (NTRK3, Homo sapiens, UniProt Q16288) | 102%
Serine/threonine-protein kinase BRSK1 (BRSK1, Homo sapiens, UniProt Q8TDC3) | 92.8%
Epidermal growth factor receptor (EGFR, Homo sapiens, UniProt P00533) | 98%
Homeodomain-interacting protein kinase 3 (HIPK3, Homo sapiens, UniProt Q9H422) | 99.1%
Serine/threonine-protein kinase N2 (PKN2, Homo sapiens, UniProt Q16513) | 89.7%
Protein-tyrosine kinase 2-beta (PTK2B, Homo sapiens, UniProt Q14289) | 88.9%
Mitogen-activated protein kinase kinase kinase 2 (MAP3K2, Homo sapiens, UniProt Q9Y2U5) | 98%
Calcium/calmodulin-dependent protein kinase type 1D (CAMK1D, Homo sapiens, UniProt Q8IU85) | 99.9%
Cyclin-dependent kinase 2, with cyclin A (CDK2, Homo sapiens, UniProt P24941) | 98.6%
Mitogen-activated protein kinase 10 (MAPK10, Homo sapiens, UniProt P53779) | 86%
Mitogen-activated protein kinase kinase kinase 8 (MAP3K8, Homo sapiens, UniProt P41279) | 99.5%
G protein-coupled receptor kinase 5 (GRK5, Homo sapiens, UniProt P34947) | 109%
Dual specificity tyrosine-phosphorylation-regulated kinase 4 (DYRK4, Homo sapiens, UniProt Q9NR20) | 98.9%
Serine/threonine-protein kinase Nek9 (NEK9, Homo sapiens, UniProt Q8TD19) | 104%
Calcium/calmodulin-dependent protein kinase type 1G (CAMK1G, Homo sapiens, UniProt Q96NX5) | 102%
Rho-associated protein kinase 2 (ROCK2, Homo sapiens, UniProt O75116) | 96.7%
Casein kinase II subunit alpha' (CSNK2A2, Homo sapiens, UniProt P19784) | 96%

Block 2
Host: human
Matrix: microsomes or S9
Tested at: 2 µM
Time: 0.5 h
Structure (SMILES) | remaining compound [%]
N#Cc1cccc(COc2cccnc2Nc2nc3cc(F)ccc3[nH]2)c1 | 32.5
CCC(C)Nc1[nH]c2cc(C)cc(C)c2c(=O)c1C(C)=O (stereo not drawn) | 1.24
Cc1cc(C(=O)NC2CCCC2)ccc1NC(=O)N1CCn2ncnc2C1 | 92.3
Cc1cc(C(=O)COC(=O)c2ncc(Cl)c(Cl)c2Cl)c(C)n1-c1nccs1 | 14.2
O=C1NCC2C1CCCN2C(=O)c1cnn(-c2ccc(F)cc2)n1 (stereo not drawn) | 12.8
CCOC(=O)N1CCN(C(=O)c2cc(-c3ccccc3)nn2C)CC1 | 31
COC(=O)c1ccc(CCC(C)NCC(O)c2cccc(Cl)c2)o1 (stereo not drawn) | 4.99
Cc1ccc(-c2noc3c(N(C)Cc4ccccc4)ncnc23)cc1 | 33.4

Block 3
Compound: C[C@H](NC(=O)Nc1cc2[nH]ncc2c(CO)n1)c1ccccn1
GSK3B: Glycogen synthase kinase-3 beta (GSK3B, Homo sapiens, UniProt P49841)
Chain of UniProt P49841 (whole entry, looked up): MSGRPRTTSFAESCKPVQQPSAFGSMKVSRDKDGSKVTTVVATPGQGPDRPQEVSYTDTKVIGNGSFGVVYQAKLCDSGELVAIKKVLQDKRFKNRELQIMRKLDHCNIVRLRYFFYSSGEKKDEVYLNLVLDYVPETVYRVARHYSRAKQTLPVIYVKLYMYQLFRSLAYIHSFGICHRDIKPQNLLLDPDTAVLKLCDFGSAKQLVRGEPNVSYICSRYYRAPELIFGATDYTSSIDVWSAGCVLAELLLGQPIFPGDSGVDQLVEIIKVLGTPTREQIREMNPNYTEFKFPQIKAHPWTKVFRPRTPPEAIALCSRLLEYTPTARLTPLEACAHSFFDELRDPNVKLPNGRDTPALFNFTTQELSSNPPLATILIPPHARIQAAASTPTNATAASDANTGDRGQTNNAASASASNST
target | observed | technique | matrix | EC50 [µM]
GSK3B | target engagement | NanoBRET |  | > 50
Mitogen-activated protein kinase 1 (MAPK1, Homo sapiens, UniProt P28482) | target engagement in cells | BRET |  | 18
GSK3B | target engagement in cells | BRET |  | > 50
Serine/threonine-protein kinase Sgk1 (SGK1, Homo sapiens, UniProt O00141) | target engagement | NanoBRET | live cells | > 50

Block 4
Target: DNA polymerase theta, helicase domain (POLQ, Homo sapiens, UniProt O75417)
Chain of UniProt O75417 (whole entry, looked up): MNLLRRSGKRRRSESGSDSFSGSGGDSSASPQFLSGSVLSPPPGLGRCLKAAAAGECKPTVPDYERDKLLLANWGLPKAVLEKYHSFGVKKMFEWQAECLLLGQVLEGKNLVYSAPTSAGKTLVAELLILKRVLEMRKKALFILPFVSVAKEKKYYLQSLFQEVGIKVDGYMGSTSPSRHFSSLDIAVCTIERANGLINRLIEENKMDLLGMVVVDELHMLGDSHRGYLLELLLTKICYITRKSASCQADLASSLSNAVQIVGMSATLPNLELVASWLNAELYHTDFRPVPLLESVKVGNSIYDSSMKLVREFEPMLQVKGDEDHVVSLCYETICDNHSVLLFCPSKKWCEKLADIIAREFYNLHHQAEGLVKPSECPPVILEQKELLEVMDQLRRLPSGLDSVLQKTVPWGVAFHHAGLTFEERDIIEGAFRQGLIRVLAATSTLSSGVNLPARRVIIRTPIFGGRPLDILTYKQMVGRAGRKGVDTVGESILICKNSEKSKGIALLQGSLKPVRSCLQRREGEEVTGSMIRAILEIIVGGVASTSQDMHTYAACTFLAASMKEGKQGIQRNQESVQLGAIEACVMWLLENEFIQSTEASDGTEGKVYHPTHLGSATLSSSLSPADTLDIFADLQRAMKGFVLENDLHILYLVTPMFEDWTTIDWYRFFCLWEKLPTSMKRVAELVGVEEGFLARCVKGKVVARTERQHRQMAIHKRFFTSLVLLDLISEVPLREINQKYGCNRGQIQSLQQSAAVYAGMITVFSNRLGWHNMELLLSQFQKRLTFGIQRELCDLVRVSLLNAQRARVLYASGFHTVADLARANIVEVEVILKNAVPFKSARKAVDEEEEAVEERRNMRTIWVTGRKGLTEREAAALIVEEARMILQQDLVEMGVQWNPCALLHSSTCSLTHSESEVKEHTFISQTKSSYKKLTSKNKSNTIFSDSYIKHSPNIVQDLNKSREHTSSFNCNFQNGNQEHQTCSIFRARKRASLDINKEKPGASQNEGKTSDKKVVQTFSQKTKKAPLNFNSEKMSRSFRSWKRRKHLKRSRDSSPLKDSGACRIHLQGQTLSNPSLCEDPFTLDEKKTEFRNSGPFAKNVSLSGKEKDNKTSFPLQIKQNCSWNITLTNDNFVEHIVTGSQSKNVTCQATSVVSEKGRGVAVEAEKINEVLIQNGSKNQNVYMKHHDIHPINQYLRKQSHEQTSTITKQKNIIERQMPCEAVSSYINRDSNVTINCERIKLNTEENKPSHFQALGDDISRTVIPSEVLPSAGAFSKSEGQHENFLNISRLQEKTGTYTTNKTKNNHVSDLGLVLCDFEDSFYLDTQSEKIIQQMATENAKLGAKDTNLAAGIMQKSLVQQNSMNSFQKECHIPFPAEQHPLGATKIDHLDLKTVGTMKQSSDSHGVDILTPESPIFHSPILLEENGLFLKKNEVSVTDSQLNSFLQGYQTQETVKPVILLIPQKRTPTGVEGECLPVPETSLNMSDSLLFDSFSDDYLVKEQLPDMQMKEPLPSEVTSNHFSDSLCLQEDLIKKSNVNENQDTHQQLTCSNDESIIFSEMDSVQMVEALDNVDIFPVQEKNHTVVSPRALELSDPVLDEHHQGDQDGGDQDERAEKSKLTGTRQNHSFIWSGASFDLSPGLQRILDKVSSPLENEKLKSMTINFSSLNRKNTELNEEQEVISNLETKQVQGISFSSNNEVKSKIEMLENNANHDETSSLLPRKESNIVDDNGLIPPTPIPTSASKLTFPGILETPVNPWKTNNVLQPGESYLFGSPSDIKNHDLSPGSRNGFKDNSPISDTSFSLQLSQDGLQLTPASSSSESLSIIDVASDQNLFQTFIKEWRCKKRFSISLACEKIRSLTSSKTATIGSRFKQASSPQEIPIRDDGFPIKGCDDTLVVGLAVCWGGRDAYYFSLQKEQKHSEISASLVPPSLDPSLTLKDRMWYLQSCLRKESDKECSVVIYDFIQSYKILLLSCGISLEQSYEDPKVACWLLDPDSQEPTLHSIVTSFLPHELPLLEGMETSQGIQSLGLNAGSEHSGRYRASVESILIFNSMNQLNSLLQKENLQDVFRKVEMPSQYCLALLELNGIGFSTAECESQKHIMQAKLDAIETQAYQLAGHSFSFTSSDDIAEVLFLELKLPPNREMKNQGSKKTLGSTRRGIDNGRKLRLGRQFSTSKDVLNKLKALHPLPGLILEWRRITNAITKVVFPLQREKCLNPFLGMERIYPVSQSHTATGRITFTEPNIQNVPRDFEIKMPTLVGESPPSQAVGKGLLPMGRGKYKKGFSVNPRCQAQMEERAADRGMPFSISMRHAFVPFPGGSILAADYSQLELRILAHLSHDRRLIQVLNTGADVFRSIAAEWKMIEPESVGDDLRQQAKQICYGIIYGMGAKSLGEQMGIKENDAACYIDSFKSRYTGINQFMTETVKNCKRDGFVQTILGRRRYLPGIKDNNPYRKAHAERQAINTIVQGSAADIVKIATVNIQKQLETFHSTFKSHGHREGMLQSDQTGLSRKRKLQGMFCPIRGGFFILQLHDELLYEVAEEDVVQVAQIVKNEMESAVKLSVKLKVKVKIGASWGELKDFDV
Observed: ATPase activity
Tested at: concentration not given
Setting: average
Together with: with ssDNA
Structure (SMILES) | remaining activity [%]
C/C(O)=C(\C#N)C(=O)Nc1ccc(C(F)(F)F)cc1 | 67.6
COc1cccc2c1C(=O)c1c(O)c3c(c(O)c1C2=O)C[C@@](O)(C(=O)CO)C[C@@H]3O[C@H]1C[C@H](N)[C@@H](O)[C@H](C)O1 | 46.5
CSc1ccc(/C=C/c2nc3ccccc3n2S(=O)(=O)c2cccc(Cl)c2)cc1 | 47.9
COc1cc2c(cc1Cc1cccc(Cl)c1F)c(=O)c(C(=O)O)cn2[C@H](CO)C(C)C | 81.4
CC(=O)Oc1ccccc1C(=O)Nc1ncc([N+](=O)[O-])s1 | 46.8
CSc1ccc(/C=C/c2nc3ccccc3n2S(=O)(=O)c2ccc(Br)cc2)cc1 | 53.4
O=C1c2c(O)ccc(O)c2C(=O)c2c(NCCNCCO)ccc(NCCNCCO)c21 | 22.5
O=C(O)/C(=C/c1c(C(=O)O)[nH]c2cc(Cl)cc(Cl)c12)c1ccccc1 | 107

Block 5
Compound: CN1CCC[C@H]1COc1nc2c(c(N3CCN(S(C)(=O)=O)[C@@H](CC#N)C3)n1)CCN(c1cccc3cccc(Cl)c13)C2
Observed: binding
Mode: competitor
Technique: NanoBRET
Cell line: HEK293
KRAS Q61R: GTPase KRas (KRAS, Homo sapiens, UniProt P01116, Q61R)
target | tested at | normalized BRET
GTPase KRas (KRAS, Homo sapiens, UniProt P01116, Q61H) | 1.24 µM | 47.7% and 43.7% and 38.7%
GTPase KRas (KRAS, Homo sapiens, UniProt P01116, G12D) | 412 nM | 96.2% and 87.8% and 88.6%
KRAS Q61R | 5.08 nM | 85.6% and 94.1% and 99.5%
KRAS Q61R | 45.7 nM | 96.7% and 90.1% and 77.7%

Excerpt of the above (block 1):
target | remaining activity
Myotonin-protein kinase (DMPK, Homo sapiens, UniProt Q09013) | 103%
Mitogen-activated protein kinase kinase kinase 8 (MAP3K8, Homo sapiens, UniProt P41279) | 99.5%
G protein-coupled receptor kinase 5 (GRK5, Homo sapiens, UniProt P34947) | 109%
Proto-oncogene tyrosine-protein kinase ROS (ROS1, Homo sapiens, UniProt P08922) | 92.5%
